Results from different studies.
Parts stem from different laboratories: compare values within a part only.

Series 1
Target: RNA binding protein fox-1 homolog 2, RRM domain, GST-SBP tag (RBFOX2, Homo sapiens, UniProt O43251-10, residues 100-194)
Method: RNA Bind-n-Seq
Molecule type: RNA
Sample: in vitro
Concentration: 365 nM
Setting: natural RNA segment, single round, ends assumed
Baseline: no-protein control
Reading: higher = stronger binding
Construct (chain): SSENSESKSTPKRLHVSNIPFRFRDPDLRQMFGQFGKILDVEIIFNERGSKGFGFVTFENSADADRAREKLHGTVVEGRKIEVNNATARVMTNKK
Sequence | RBNS enrichment (R)
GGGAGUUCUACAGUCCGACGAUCAAGCCGGUCAAACUAUAUAAACUCUGGCUCACCUUGCCCAGUGGUGAGGGCUGCCUCUGUGCCAGGAUGCCAAGGACCGCUGCACAUUUCCAAAUUCACAGCAGUGGAUCUGGAAUUCUCGGGUGCCAA | 0.309
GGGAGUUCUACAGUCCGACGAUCGAAAUGCAGUAAAGCCAGGGAAUUUACAAUAACAUUUCCGUUUCCAUCAUUGAAUAAGUCUUAUUCAGUCAUCGGUGAGGUUAAUGCACUAAUCAUGGAUUUUUUGAACAUGGAAUUCUCGGGUGCCAA | 0.285
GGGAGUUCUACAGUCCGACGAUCGCUUAGUGAUACAAAUACAUUUCUCUGUAGACUUCCUUAAGGAAAGACGUGAGUAGAGCUAGGUUGGGCAGAUGGACAGGUGGCAAUAGUAAGCUUAUCCGAAGCCUACAUGGAAUUCUCGGGUGCCAA | 0.31
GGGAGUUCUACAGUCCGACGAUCCCCCAGCAGGCUGCGUGUUUAAGAAUUUCAUUGUUUAACUGGCUGGUGUGAGAAGUCUUCCGUUAGCAUAGAGUGGAAGGAGUACUAUUGUUUGGUUGGGUUUUUGUUUGUGGAAUUCUCGGGUGCCAA | 1.52
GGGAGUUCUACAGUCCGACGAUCAUCUUAAAACUACAAGUUGUAAGUAUUCUGAAAUUGGGAAACAUUUAUUUUAAAUGCAAUCAGGUAGUGUUGCUUUUUACAGCAUAAUAAAUAUAUGUAUCAAAAAAAAAUGGAAUUCUCGGGUGCCAA | 0.438
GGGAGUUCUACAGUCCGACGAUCACUAAUGGGAUUCAGGCAGAAGUGUCUACCUUGAUAGGUGGGGUGGGACCACAUCCUCCACUGUGGCUGACAACGCCCUUCCAAGGGAAUAUGGAAUGAGAACAUUCAUUUGGAAUUCUCGGGUGCCAA | 0.34
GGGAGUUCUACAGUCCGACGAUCAGCUGGGCUUCCUUUGUUGGAGUCAACUGUUGAUGCUUCCAGGCCAAACUGGCUUCCUCUCCUCCUCUCCCCACCUUUGCCAUUCUUAAGUAUUGAAUGUACUUUGUAUAUGGAAUUCUCGGGUGCCAA | 0.511
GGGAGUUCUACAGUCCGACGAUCUUCCAUCUGCAUCUUCCAGAUUUAUCAUGAGUGAUCUUGUUCUACUGUUAAAGAUGUCAAGCCUAAAAAGUAAUAAAGUUUUUAUUUGGCUGUUGAACCUUGAUGUAGCCUGGAAUUCUCGGGUGCCAA | 0.981

Series 2
Target: Interferon regulatory factor 3, full length, phosphomimetic (IRF3, Homo sapiens, UniProt Q14653, residues 1-427, S386D/S396D/S398D/S402D/T404D/S405D)
Method: protein-binding microarray
Molecule type: double-stranded DNA, one strand shown
Sample: in vitro
Concentration: 2540 nM top
Setting: 60-bp whole probe
Together with: salmon DNA 0.4 mg/ml
Baseline: random background probes
Reading: higher = stronger binding
Constant ends, left off below: GCCTAGCAC … GTCTTGATTCGCTTGACGCTGCTG
Target sequence (chain): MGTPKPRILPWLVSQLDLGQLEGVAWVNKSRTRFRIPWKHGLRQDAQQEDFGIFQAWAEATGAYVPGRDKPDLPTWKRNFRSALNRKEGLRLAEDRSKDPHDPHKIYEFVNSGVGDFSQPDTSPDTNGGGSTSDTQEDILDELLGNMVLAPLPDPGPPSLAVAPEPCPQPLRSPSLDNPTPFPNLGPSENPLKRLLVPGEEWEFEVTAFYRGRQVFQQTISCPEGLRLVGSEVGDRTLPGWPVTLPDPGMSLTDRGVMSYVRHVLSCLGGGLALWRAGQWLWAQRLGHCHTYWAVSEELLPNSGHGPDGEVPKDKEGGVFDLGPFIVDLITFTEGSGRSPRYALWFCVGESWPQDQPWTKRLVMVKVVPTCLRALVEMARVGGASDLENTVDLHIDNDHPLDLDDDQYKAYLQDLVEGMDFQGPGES
Sequence | fitted relative affinity
GACGGTCTCCTACGGCTGACGTGCTAG | 0.151 z-score
GACGAACTGGGGACTGGTGACGTGCTA | -0.676 z-score
GACGGCCTGGACTATCGGGACGTGCTA | -0.972 z-score
TTAGGACTGGGGTTTCGATTAGTGCTA | 1.08 z-score
TTCAGTTTTCCTCTGTCATTGTGCTAG | 2.18 z-score
TTAGGTTTCATACTGCTTTAGTGCTAG | 3.07 z-score
TATTTTGGAAACTCACAACAGTGCTAG | 1.54 z-score
TTTACTTTCTGAATGCCCTTGTGCTAG | 5.57 z-score
TCAATTTTCATTTTGTGACTGTGCTAG | 2.66 z-score
GACGGCATCCTACTGCTGACGTGCTAG | -0.344 z-score
TTAGTACTGGGTATCGGTTAGTGCTAG | 0.644 z-score
TTAGATATCCTACTGCTTTAGTGCTAG | 0.798 z-score
TTAGGTATCCTTCTGCTTTAGTGCTAG | 4.3 z-score
TTAGGTCTCGGTCTCGGTTTGTGCTAG | 1.58 z-score
GACGATATCGGTTTCGGGACGTGCTAG | 4.78 z-score
TTAGGTATCCTTTTCCCTTAGTGCTAG | 8.72 z-score
GACGGTTTCGACACTGGGCACGTGCTA | 3.24 z-score
TTAGATATCAGTCTCGTTTAGTGCTAG | 1.64 z-score
TCACATATCGGGGTGCGCACTGTGCTA | 0.282 z-score

Series 3
Target: Prothrombin, mature alpha-thrombin (F2, Homo sapiens, UniProt P00734)
Method: aptamer microarray, sandwich
Molecule type: DNA with 2'F-ANA
Sample: in vitro
Concentration: 200 nM
Setting: whole 15-mer aptamer, many near background
Together with: Cy3 exosite-II aptamer, 400 nM
Reading: higher = stronger binding
Sequence: GGTTGGTGTGGTTGG
Modification | mean fluorescence intensity [a.u.]
2'F-ANA at 2 4 5 7 10 11 12 13 14 15 | 53.4
2'F-ANA at 1 2 8 9 11 15 | 170
2'F-ANA at 1 3 4 6 9 10 15 | 62.5
2'F-ANA at 2 6 8 10 11 13 15 | 110
2'F-ANA at 1 2 4 5 6 9 10 12 13 14 | 56.8
2'F-ANA at 1 3 4 15 | 242
2'F-ANA at 2 3 5 10 11 12 14 15 | 52.1
2'F-ANA at 2 3 4 5 6 7 8 9 11 14 | 48.1
2'F-ANA at 2 3 6 7 8 9 10 12 13 15 | 354
2'F-ANA at 2 5 6 8 9 10 11 14 | 56.1
2'F-ANA at 1 2 4 5 6 9 11 12 13 14 | 45.2
2'F-ANA at 1 2 4 7 10 12 15 | 63.9
2'F-ANA at 1 2 3 5 7 9 10 11 12 15 | 51.5
2'F-ANA at 2 4 7 9 14 | 96.8
2'F-ANA at 1 2 3 4 5 7 8 12 13 15 | 123
2'F-ANA at 3 5 6 8 12 14 | 67.1
2'F-ANA at 1 3 4 5 7 13 | 49.9
2'F-ANA at 1 2 3 7 9 11 15 | 179
2'F-ANA at 1 2 4 5 6 7 11 12 | 121
2'F-ANA at 6 8 9 11 12 14 | 204

Series 4
Target: Ras GTPase-activating protein-binding protein 1, full length (G3BP1, Homo sapiens, UniProt Q13283)
Chain of UniProt Q13283 (whole entry, looked up): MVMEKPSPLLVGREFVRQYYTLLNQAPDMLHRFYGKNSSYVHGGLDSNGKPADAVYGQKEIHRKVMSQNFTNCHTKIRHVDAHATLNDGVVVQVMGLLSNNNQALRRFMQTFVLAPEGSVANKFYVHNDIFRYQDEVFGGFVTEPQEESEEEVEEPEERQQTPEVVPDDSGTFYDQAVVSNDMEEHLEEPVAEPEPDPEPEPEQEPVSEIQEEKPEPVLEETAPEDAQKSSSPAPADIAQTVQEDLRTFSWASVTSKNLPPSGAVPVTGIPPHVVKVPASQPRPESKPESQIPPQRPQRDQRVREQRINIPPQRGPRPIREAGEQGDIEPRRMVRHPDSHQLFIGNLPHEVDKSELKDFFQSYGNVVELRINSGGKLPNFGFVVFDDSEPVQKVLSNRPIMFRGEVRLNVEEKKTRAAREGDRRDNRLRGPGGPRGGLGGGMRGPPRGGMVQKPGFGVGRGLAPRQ
Method: RNA Bind-n-Seq
Molecule type: RNA
Sample: in vitro
Concentration: 200 nM
Setting: whole 134-nt RNA, ends assumed
Together with: 150 mM KCl
Baseline: input library
Reading: higher = stronger binding
Sequence | log2 enrichment
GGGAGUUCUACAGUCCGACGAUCUUGACAUGAAGACAAUGGAGACUGCAGAGAAACUGGCUAGAUUUGUUGCUCAGGUGGGACCAGAGAUCGAACAAUUCAGCAUAGAAAACAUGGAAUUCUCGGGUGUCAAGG | -0.917
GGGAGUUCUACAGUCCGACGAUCUCAAGUCCUGUGCUACACAUCGUAUGUACCGAAUCGGGUUUGGGAAAGGGAGGGAAAGUAUUAUGUUACGCCGUUCGGAUCUGCACUUCCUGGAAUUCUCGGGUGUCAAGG | 1.16
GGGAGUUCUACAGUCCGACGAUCAGUCCUGUGCUACACAUCGUAUGUACCGAAUCGGGAAAAAAAGGGAAAAAGGGUGGGAAAGUAUUAUGUUACGCCGUUCGGAUCUGCACUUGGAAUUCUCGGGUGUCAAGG | 0.0759
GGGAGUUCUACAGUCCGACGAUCGCAGGAAGUAAAAACAAAUGGAAAUGCUUCGGAUAGUGGCAGGGGUGGGGGUUGCUAAGGAAAGGGGGGGAUGGGAGUGGGUAAAGAGUUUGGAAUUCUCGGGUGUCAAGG | 0.874
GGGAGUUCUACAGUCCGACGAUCACCAUGCAGGUGGGCAUCUUUGGGAAGUGGGGCAAGGGGGGGAUAGGUAGGGGGGUAACACUUUGGGAACAGGUGGUCCCAGGUCGUUUCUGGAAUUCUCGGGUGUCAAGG | 0.867
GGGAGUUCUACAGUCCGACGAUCUGGGAGAUGGAUUUUGUUUAUUUUUUUAGCUCAUUUCCAGGGGUGGGAAUUUUUUUUUAAUAUGUGUCAUGAAUAAAGUUGUUUUUGAAAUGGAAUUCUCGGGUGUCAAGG | -0.509
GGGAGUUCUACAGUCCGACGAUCUCUAUCCUGUCCCUCCACCCCACCCUCCACCUCAAUCCCCUCCCAUCUUCCCCAGACCUACCUCACCUACUAGGACCUGAGGCAGCUCCUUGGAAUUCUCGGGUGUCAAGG | 0.627
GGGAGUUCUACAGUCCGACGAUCCCUCAAGUCCUGUGCUACACAUCGUAUGUACCGAAUCGGGUGGUGGGGUGGGGAAAGUAUUAUGUUACGCCGUUCGGAUCUGCACUUCCAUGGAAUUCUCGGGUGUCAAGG | 0.78
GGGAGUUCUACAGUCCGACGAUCUGUCCUGUGCUUUCACAUUCUUUCUGCAUGGAGAAAGUAAUGUAUGCACAAGUGUGGAGAUUGCCCAGCACCAGCCAAUUUAUUUGAUCAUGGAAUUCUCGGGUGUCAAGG | -1.11

For quick reference, copied from above (series 3):
Modification | mean fluorescence intensity [a.u.]
2'F-ANA at 1 2 4 5 6 9 11 12 13 14 | 45.2
2'F-ANA at 1 3 4 15 | 242
2'F-ANA at 2 3 5 10 11 12 14 15 | 52.1
2'F-ANA at 3 5 6 8 12 14 | 67.1
2'F-ANA at 2 6 8 10 11 13 15 | 110
